Assay results of several laboratories.
Numbers after ± are the reported error.
Tumor necrosis factor receptor superfamily member 9/Nectin-4: Tumor necrosis factor receptor superfamily member 9/Nectin-4 (Homo sapiens, UniProt Q07011+Q96NY8)
Chain of UniProt Q96NY8 (whole entry, looked up): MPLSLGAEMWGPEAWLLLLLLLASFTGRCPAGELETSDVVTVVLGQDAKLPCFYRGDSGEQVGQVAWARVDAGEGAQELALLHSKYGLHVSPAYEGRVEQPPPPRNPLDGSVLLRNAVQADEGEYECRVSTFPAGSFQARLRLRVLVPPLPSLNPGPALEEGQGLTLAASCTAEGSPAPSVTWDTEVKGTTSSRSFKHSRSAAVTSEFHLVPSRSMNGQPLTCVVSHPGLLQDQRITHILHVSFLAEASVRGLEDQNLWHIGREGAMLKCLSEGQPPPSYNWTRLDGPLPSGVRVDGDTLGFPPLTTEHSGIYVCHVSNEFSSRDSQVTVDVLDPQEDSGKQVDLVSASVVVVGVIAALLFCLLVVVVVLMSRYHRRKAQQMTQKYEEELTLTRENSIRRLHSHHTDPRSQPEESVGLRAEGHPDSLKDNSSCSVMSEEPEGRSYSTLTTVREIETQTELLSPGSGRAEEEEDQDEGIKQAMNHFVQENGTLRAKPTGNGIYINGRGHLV
Chain of UniProt Q07011 (whole entry, looked up): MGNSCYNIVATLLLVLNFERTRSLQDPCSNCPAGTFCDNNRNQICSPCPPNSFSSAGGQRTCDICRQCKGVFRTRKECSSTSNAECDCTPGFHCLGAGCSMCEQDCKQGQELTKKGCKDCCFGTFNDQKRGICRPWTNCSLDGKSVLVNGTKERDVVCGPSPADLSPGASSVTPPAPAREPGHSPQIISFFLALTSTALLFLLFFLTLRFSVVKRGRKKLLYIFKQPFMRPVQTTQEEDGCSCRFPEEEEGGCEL
Chain of UniProt P41595 (whole entry, looked up): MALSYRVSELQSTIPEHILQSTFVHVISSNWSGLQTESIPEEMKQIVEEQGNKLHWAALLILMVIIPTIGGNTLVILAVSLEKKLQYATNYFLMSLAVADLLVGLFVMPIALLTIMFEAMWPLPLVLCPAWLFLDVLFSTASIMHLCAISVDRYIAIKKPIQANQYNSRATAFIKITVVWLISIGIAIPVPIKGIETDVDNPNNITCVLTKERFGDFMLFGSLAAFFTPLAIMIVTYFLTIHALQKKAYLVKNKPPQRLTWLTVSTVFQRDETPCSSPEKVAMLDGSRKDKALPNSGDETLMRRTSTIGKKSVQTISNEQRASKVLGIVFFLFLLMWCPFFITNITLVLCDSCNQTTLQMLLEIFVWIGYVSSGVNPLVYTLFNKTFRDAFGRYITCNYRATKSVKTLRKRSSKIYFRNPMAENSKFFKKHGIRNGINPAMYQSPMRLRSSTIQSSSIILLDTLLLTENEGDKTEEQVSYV
Chain of UniProt P34995 (whole entry, unmodified, looked up): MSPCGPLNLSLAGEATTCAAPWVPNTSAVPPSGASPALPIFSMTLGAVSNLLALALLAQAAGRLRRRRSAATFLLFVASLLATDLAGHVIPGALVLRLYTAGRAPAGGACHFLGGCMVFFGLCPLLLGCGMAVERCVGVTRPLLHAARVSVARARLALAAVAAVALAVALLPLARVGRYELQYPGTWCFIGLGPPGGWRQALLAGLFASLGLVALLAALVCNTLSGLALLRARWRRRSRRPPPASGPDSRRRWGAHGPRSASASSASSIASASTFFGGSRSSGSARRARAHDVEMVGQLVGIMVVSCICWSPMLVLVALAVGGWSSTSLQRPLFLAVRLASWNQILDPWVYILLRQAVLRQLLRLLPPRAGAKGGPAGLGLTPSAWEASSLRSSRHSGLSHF
Chain of UniProt O60603 (whole entry, looked up): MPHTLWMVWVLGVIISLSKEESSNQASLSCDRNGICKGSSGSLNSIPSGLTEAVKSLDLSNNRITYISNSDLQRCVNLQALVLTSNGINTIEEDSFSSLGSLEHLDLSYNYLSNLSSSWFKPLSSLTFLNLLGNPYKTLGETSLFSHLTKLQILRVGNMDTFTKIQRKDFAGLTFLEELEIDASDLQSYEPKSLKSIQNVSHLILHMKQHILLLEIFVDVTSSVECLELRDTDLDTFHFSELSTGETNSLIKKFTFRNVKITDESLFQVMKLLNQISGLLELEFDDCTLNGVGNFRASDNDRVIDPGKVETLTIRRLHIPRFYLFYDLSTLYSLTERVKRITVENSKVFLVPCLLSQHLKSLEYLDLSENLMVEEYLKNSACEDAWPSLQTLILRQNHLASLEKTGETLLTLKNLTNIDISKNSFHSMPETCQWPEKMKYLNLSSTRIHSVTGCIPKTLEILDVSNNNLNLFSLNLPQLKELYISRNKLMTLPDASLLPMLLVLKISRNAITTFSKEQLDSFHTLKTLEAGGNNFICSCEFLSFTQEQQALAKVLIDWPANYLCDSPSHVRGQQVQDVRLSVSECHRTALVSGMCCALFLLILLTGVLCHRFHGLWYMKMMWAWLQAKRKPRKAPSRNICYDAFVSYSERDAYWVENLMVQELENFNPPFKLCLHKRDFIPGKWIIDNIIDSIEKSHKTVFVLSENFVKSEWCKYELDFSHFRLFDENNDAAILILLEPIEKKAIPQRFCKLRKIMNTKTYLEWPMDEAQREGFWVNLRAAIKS
Chain of UniProt Q8NHB7 (whole entry, unmodified, looked up): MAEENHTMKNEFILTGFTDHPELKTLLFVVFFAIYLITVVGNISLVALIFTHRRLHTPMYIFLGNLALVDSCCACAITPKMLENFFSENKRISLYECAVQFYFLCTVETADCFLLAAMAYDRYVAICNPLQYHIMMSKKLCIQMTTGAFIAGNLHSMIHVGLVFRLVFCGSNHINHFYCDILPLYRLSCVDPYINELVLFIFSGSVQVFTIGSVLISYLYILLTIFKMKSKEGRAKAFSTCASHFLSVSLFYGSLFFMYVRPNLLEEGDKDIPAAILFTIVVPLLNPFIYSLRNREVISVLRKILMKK
Chain of UniProt Q15399 (whole entry, looked up): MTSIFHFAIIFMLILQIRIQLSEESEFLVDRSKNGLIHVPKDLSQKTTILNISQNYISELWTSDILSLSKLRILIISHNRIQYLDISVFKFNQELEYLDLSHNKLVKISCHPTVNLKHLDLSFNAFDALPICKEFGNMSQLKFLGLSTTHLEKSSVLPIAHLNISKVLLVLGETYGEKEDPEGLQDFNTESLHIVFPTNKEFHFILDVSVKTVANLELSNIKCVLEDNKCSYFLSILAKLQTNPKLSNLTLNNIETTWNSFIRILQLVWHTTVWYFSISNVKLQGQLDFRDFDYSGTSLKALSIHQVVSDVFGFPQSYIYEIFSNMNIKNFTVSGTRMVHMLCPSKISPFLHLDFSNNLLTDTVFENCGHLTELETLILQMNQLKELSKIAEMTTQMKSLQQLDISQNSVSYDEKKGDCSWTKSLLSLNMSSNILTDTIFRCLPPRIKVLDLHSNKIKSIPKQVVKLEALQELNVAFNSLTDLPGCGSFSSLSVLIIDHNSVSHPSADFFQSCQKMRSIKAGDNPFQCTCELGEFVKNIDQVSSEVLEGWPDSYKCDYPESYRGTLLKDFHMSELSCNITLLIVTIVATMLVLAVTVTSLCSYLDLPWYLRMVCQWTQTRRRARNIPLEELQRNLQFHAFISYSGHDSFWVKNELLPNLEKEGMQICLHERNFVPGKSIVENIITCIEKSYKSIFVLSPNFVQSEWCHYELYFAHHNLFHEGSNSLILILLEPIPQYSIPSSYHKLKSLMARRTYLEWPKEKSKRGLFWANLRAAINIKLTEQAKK
Chain of UniProt P14618 (whole entry, looked up): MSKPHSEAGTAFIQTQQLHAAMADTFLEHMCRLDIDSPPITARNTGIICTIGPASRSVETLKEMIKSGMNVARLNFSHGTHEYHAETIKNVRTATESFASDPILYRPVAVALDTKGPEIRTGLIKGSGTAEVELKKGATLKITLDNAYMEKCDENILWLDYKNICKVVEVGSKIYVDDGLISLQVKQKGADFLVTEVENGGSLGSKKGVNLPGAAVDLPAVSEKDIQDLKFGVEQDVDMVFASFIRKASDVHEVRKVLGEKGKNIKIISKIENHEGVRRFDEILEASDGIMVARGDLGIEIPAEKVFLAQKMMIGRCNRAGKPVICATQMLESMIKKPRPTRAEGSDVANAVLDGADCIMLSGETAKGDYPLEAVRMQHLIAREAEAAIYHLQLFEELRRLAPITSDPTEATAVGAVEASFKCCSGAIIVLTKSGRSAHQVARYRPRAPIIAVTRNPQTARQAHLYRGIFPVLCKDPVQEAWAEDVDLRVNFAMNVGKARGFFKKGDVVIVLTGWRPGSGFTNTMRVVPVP

With `CC(=O)c1cc([N+](=O)[O-])c(Sc2cccc(Cl)c2Cl)s1` the EC50 was greater than 50000 nM (enterokinase; enzyme activity, inhibitor).
For `CCCC[C@@H]1NC(=O)[C@H](Cc2ccc(O)cc2)NC(=O)[C@@H]2CCCN2C(=O)[C@H](CC(=O)O)NC(=O)[C@H](C)NC(=O)[C@H](Cc2ccccc2)NC(=O)[C@@H]2CSCCC(=O)N3CN(CN(C3)C(=O)CCSC[C@@H](C(=O)N[C@@H](CNC(=O)Cn3cc(CCC(=O)NCCC(=O)N(C)CC(=O)N(C)CC(=O)N(C)CC(=O)N(C)CC(=O)N(C)CC(=O)N(C)CC(=O)N(C)CC(=O)N(C)CC(=O)N(C)CC(=O)N(C)CC(=O)N[C@H]4CSCCC(=O)N5CN6CN(C5)C(=O)CCSC[C@H](NC(=O)[C@@H](CC(=O)O)NC(=O)[C@H](Cc5cccc7ccccc57)NC(=O)[C@@H]5CCCN5C4=O)C(=O)N[C@@H](CCSC)C(=O)N[C@@H](CCCCNC(=N)N)C(=O)N[C@@H](CC(=O)O)C(=O)N[C@@H](Cc4c[nH]c5ccccc45)C(=O)N[C@@H](CO)C(=O)N[C@@H]([C@@H](C)O)C(=O)N4CCC[C@H]4C(=O)N4C[C@H](O)C[C@H]4C(=O)N[C@@H](Cc4c[nH]c5ccccc45)C(=O)N[C@H](C(N)=O)CSCCC6=O)nn3)C(N)=O)NC1=O)C(=O)CCSC[C@H](NC(C)=O)C(=O)N[C@@H](CC(C)(C)C)C(=O)N1CCC[C@H]1C(=O)N[C@@H](CCC(=O)O)C(=O)N[C@H](C)C(=O)N1CCC[C@H]1C(=O)N[C@@H](Cc1ccc(O)cc1)C(=O)N2`, the EC50 was 1.98 nM (Tumor necrosis factor receptor superfamily member 9/Nectin-4; reporter gene, agonist; HT-1376 coculture with reporter cells).
The EC50 of `CNc1ccc([N+](=O)[O-])cc1-n1cnc(-c2cccc([N+](=O)[O-])c2)c1` is reported as greater than 100000 nM (Toll-like receptor 1/2 (Homo sapiens, UniProt O60603+Q15399); reporter gene, agonist; HEK-Blue hTLR2; 24 h).
With `CCCC[C@@H]1NC(=O)[C@H](Cc2ccc(O)cc2)NC(=O)[C@@H](C)N(C)C(=O)[C@H](CC(=O)O)NC(=O)[C@H](C)NC(=O)[C@H](Cc2ccccc2)NC(=O)[C@@H]2CSCCC(=O)N3CN(CN(C3)C(=O)CCSC[C@H](NC(C)=O)C(=O)N[C@@H](CC(C)(C)C)C(=O)N3CCC[C@H]3C(=O)N[C@@H](CCC(=O)O)C(=O)N[C@H](CCCCNC(=O)CCc3cn(CCOCCOCCOCCN(CCOCCOCCOCCC(=O)N[C@H]4CSCCC(=O)N5CN6CN(C5)C(=O)CCSC[C@H](NC(=O)[C@@H](CC(=O)O)NC(=O)[C@H](Cc5cccc7ccccc57)NC(=O)[C@@H]5CCCN5C4=O)C(=O)N[C@@H](CCSC)C(=O)N[C@@H](CCCCNC(=N)N)C(=O)N[C@@H](CC(=O)O)C(=O)N[C@@H](Cc4c[nH]c5ccccc45)C(=O)N[C@@H](CO)C(=O)N[C@@H]([C@@H](C)O)C(=O)N4CCC[C@H]4C(=O)N4C[C@H](O)C[C@H]4C(=O)N[C@@H](Cc4c[nH]c5ccccc45)C(=O)N[C@H](C(N)=O)CSCCC6=O)CCOCCOCCOCCn4cc(CCC(=O)NCCCC[C@H]5NC(=O)[C@H](CCC(=O)O)NC(=O)[C@@H]6CCCN6C(=O)[C@H](CC(C)(C)C)NC(=O)[C@@H](NC(C)=O)CSCCC(=O)N6CN7CN(C6)C(=O)CCSC[C@H](NC(=O)[C@H](Cc6ccc(O)cc6)NC(=O)[C@@H]6CCCN6C5=O)C(=O)N[C@@H](Cc5ccccc5)C(=O)N[C@@H](C)C(=O)N[C@@H](CC(=O)O)C(=O)N(C)[C@H](C)C(=O)N[C@@H](Cc5ccc(O)cc5)C(=O)N[C@@H](CCCC)C(=O)N[C@H](C(N)=O)CSCCC7=O)nn4)nn3)C(=O)N3CCC[C@H]3C(=O)N[C@@H](Cc3ccc(O)cc3)C(=O)N2)C(=O)CCSC[C@@H](C(N)=O)NC1=O` the EC50 was 0.35 nM (Tumor necrosis factor receptor superfamily member 9/Nectin-4; reporter gene, agonist; HT-1376 reporter coculture).
The EC50 of `O=C(COP(=O)(O)O)[C@@H](O)[C@H](O)[C@H](O)COP(=O)(O)O` is reported as 698 ± 313 nM (Pyruvate kinase PKM (PKM, Homo sapiens, UniProt P14618); pyruvate kinase activity, activator; MGC-803 cell lysate; together with: AIM).
With `Cn1cc2c(C(=O)O)ccc(NS(=O)(=O)c3ccc(OCC4CCC4)c(Cl)c3)c2n1` the EC50 was greater than 10000 nM (5-hydroxytryptamine receptor 2B (HTR2B, Homo sapiens, UniProt P41595); agonist).
With `CCCCC[C@H](O)/C=C/[C@H]1[C@H](O)CC(=O)[C@@H]1C/C=C\CCCC(=O)O` the EC50 was 311 nM (Prostaglandin E2 receptor EP1 subtype (PTGER1, Homo sapiens, UniProt P34995, F334A/G92A); IP1 accumulation, agonist; AD293).
For `CCCC[C@@H]1NC(=O)[C@H](Cc2ccc(O)cc2)NC(=O)[C@@H]2CCCN2C(=O)[C@H](CC(=O)O)NC(=O)[C@H](C)NC(=O)[C@H](Cc2ccccc2)NC(=O)[C@@H]2CSCCC(=O)N3CN(CN(C3)C(=O)CCSC[C@@H](C(=O)N[C@@H](CNC(=O)CCOCCOCCOCCOCCOCCOCCOCCOCCOCCOCCOCCOCCn3cc(CCC(=O)NCCC(=O)N(C)CC(=O)N(C)CC(=O)N(C)CC(=O)N(C)CC(=O)N(C)CC(=O)N(C)CC(=O)N(C)CC(=O)N(C)CC(=O)N(C)CC(=O)N(C)CC(=O)N[C@H]4CSCCC(=O)N5CN6CN(C5)C(=O)CCSC[C@H](NC(=O)[C@@H](CC(=O)O)NC(=O)[C@H](Cc5cccc7ccccc57)NC(=O)[C@@H]5CCCN5C4=O)C(=O)N[C@@H](CCSC)C(=O)N[C@@H](CCCCNC(=N)N)C(=O)N[C@@H](CC(=O)O)C(=O)N[C@@H](Cc4c[nH]c5ccccc45)C(=O)N[C@@H](CO)C(=O)N[C@@H]([C@@H](C)O)C(=O)N4CCC[C@H]4C(=O)N4C[C@H](O)C[C@H]4C(=O)N[C@@H](Cc4c[nH]c5ccccc45)C(=O)N[C@H](C(N)=O)CSCCC6=O)nn3)C(N)=O)NC1=O)C(=O)CCSC[C@H](NC(=O)[C@H](C)NC(C)=O)C(=O)N[C@@H]([C@@H](C)CC)C(=O)N[C@@H](CCC(=O)O)C(=O)N[C@@H](CCC(=O)O)C(=O)NCC(=O)N[C@@H](CCC(N)=O)C(=O)N[C@@H](Cc1ccc(O)cc1)C(=O)N2`, the EC50 was 3.98 nM (Tumor necrosis factor receptor superfamily member 9/Nectin-4; reporter gene, agonist; HT-1376 coculture with reporter cells).
With `CCc1ncc(C)nc1CC` the EC50 was 92900 ± 14600 nM (OR5K1 (Homo sapiens, UniProt Q8NHB7, A2T/I280V/T15M/V39I/Y193C); cAMP, agonist; HEK293 transfected with OR5K1).

A few entries again:
With `CCc1ncc(C)nc1CC` the EC50 was 92900 ± 14600 nM (OR5K1 (Homo sapiens, UniProt Q8NHB7, A2T/I280V/T15M/V39I/Y193C); cAMP, agonist; HEK293 transfected with OR5K1).
